# Results pooled from the literature.
# Each line is one published result; not all experiments were run side by side. Numbers after ± are the reported error.
SMILES,cell line,test,test system,conditions,EC50
COC(=O)c1ccccc1-c1c2ccc(=N)c(Br)c-2oc2c(Br)c(N)ccc12,HEK-293T ATF4-FLuc reporter,"reporter gene, activator",,,> 9.96 µM
c1cc(N2CCCCC2)ccc1Nc1cc2ncc(OCC3CCNCC3)nc2cc1-c1ccc(N2CCCCC2)cc1,NB-4,"cell proliferation, XTT",,7 days,1.4 ± 0.09 µM
Cn1cnc([N+](=O)[O-])c1Sc1nc(N)nc2[nH]cnc12,HEK-293T ATF4-FLuc reporter,"reporter gene, activator",,,> 9.96 µM
CCn1cc(-c2cc(Cn3ccoc3=N)cc3c2CCN([C@@H](C)c2cc(OC)ccn2)C3=O)c(C(F)(F)F)n1,RT-4,"cell growth, inhibitor",,120 h,0.651 µM
Fc1ccc(Oc2ccc(Nc3ccc4ncc(OCC5CCNCC5)nc4c3)cc2)cc1,NB-4,"cell proliferation, XTT",,7 days,2.7 ± 0.16 µM
c1cncc(-c2cccc(Nc3ccnc(NC4CCCCC4)c3)c2)c1,BJ,cell proliferation,,72 h,8.74 µM
CC(C)(C)C(=O)ONc1nc2nonc2nc1Nc1ccccc1F,L6 rat myoblasts,"oxygen consumption rate, Seahorse XF analyzer",,,6.2 µM
C[C@]12CCCN1CC1=NNC(=O)c3cc(F)cc4[nH]c2c1c34,SNU1 gastric cancer cells,cell viability,,"concentration not given, with: with temozolomide",4.3 µM
CC(C)Nc1ccnc(Nc2cccc(-c3cnccn3)c2)n1,MOLM-13 (FLT3-ITD/D835Y),"cell viability, MTT",,72 h,0.077 µM
COc1cc(-c2ccccc2)ncc1C(=O)Nc1ccc2c(=O)[nH]c(-c3ccc(C(C)(C)O)cc3)nc2c1,Apc Q1405X mutant organoids,"organoid area, live-cell imaging",mouse small intestinal organoids,"144 h, Tnks1 genotype Tnks1+/+",1.8 µM
CCn1cc(-c2cc(Cn3ccnc3)cc3c2CCN([C@H](c2cc(OC)ccn2)C2CC2)C3=O)c(C(F)(F)F)n1,Farage,cell growth,,120 h,3.48 µM
CC(C)Nc1ccnc(Nc2ccccc2-c2ccccc2)n1,MOLM-13 (FLT3-ITD),"cell viability, MTT",,72 h,> 10 µM
Cc1nn(-c2nc3c(F)cc(F)cc3s2)c(O)c1C(c1ccc(C(F)(F)F)cc1)c1c(C)nn(-c2nc3c(F)cc(F)cc3s2)c1O,THP1-Dual,"IFNB1 luciferase reporter, inhibitor",,with: HT-DNA,11.6 ± 0.6 µM
c1ccc(COc2ccc(Nc3ccc4ncc(OCC5CCNCC5)nc4c3)cc2)cc1,NB-4,"cell proliferation, XTT",,7 days,1.5 ± 0.11 µM
c1cncc(-c2cccc(Nc3nccc(NC4CCCCC4)n3)c2)c1,MOLM-13 (FLT3-ITD/D835Y),"cell viability, MTT",,72 h,1.15 µM
COc1cnc2cccc(N3CCc4c(cc(Cn5ccnc5C)cc4-c4cn(C)nc4C(F)(F)F)C3=O)c2c1,MCAS,cell growth,,120 h,17.9 µM
CC(C)Nc1ccnc(Nc2cccc(-c3cccnc3)c2)n1,MOLM-13 (FLT3-ITD),"cell viability, MTT",,72 h,0.136 µM
C=C(NC(=O)C(=C)NC(=O)c1csc(C2=N[C@@H]3c4csc(n4)[C@H]4NC(=O)c5csc(n5)[C@H]([C@](C)(O)[C@@H](C)O)NC(=O)[C@H]5CSC(=N5)/C(=C/C)NC(=O)[C@H]([C@@H](C)O)NC(=O)c5csc(n5)[C@]3(CC2)NC(=O)[C@H](C)NC(=O)C(=C)NC(=O)[C@H](C)NC(=O)[C@H]([C@@H](C)CC)N[C@@H]2C=Cc3c([C@H](C)O)cc(nc3[C@H]2O)C(=O)O[C@@H]4C)n1)C(N)=O,H-MESO-1,"cell viability, crystal violet",,48 h,0.91 ± 0.03 µM

# A few entries again:
SMILES,cell line,test,test system,conditions,EC50
CC(C)(C)C(=O)ONc1nc2nonc2nc1Nc1ccccc1F,L6 rat myoblasts,"oxygen consumption rate, Seahorse XF analyzer",,,6.2 µM
C[C@]12CCCN1CC1=NNC(=O)c3cc(F)cc4[nH]c2c1c34,SNU1 gastric cancer cells,cell viability,,"concentration not given, with: with temozolomide",4.3 µM
